# Measurements pooled from the literature.
# Target: Insulin receptor-related protein (INSRR, Homo sapiens, UniProt P14616)
# Sequence of UniProt P14616 (whole entry, looked up): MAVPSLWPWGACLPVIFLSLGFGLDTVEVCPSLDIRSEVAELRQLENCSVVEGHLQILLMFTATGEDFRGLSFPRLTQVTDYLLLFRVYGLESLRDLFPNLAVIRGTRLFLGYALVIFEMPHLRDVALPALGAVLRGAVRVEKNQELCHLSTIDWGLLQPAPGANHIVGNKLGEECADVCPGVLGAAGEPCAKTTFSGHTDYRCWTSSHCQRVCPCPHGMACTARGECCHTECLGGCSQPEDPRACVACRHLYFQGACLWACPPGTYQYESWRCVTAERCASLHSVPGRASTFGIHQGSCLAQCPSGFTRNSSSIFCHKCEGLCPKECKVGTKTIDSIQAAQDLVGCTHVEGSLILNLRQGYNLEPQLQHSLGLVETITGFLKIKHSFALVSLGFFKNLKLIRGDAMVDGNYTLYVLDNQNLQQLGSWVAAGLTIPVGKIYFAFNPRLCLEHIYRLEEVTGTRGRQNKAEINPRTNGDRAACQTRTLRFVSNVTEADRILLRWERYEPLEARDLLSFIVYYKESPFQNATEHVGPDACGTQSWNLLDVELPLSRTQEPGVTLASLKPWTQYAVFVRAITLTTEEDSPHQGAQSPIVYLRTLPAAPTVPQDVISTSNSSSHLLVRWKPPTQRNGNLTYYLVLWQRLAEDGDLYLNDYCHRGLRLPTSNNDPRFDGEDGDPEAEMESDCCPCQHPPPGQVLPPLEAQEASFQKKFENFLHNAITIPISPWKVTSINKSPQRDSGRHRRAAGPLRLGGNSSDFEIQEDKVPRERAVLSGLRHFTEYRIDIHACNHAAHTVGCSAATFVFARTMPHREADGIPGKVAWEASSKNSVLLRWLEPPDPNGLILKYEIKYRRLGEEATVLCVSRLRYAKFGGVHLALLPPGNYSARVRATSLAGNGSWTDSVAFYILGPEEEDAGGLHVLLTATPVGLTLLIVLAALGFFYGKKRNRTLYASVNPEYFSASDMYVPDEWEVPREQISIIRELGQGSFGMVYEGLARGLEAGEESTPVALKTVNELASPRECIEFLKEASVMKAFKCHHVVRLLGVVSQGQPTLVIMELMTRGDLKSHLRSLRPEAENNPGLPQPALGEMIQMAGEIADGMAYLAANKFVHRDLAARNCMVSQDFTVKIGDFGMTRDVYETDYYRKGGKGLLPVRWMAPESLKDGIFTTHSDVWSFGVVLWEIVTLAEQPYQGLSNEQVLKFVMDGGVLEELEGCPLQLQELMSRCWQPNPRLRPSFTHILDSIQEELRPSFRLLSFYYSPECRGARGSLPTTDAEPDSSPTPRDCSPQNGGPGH
SMILES,test,conditions,how to read,measurement,result
COc1cc(F)ccc1-c1ncnc(Nc2cccc(C[S@](C)(=N)=O)c2)n1,kinase activity,"10 µM, together with: 10 µM ATP",,remaining activity,54%
COc1cc(-c2cncc3c2CN(C)Cc2cc(N4CCNCC4)ccc2-3)cc(OC)c1OC,kinase activity,"1 µM, human enzyme, together with: ATP 10 µM",baseline: DMSO control,remaining activity,96%
C=CC(=O)N1CCC(COCC(=O)N2CCN(c3nc(-c4cnc(N)nc4C(F)F)nc(N4CCOC[C@@H]4C)n3)CC2)CC1,KINOMEscan,1 µM,,remaining binding,87%
C=CC(=O)N1CCC[C@@H](n2nc(-c3ccc(Oc4ccccc4)cc3)c3c(N)ncnc32)C1,,0.1 µM,,remaining activity,130%
CCN1CCN(Cc2ccc(NC(=O)c3ccc(C)c(/C=C/c4cnc5[nH]ccc5c4OC)c3)cc2C(F)(F)F)CC1,kinase activity,1 µM,,remaining activity,100%
CNc1ncc2c(/C=C/C(=O)N3CCC(OC)CC3)nn(Cc3cccc(C(F)(F)F)c3)c2n1,"kinase activity, inhibitor",1 µM,baseline: untreated control,remaining activity,94%
O=C(NC1CCC1)c1ccc2nc(-c3cccc(NS(=O)(=O)NCCN4CCCCC4)c3)cn2c1,enzyme activity,10 µM,,remaining activity,100%
O=C1NC(=O)/C(=C/c2ccc(-c3ccc(F)cc3O)o2)S1,enzyme activity,10 µM,,remaining activity,36%
C#Cc1cc(-c2cc(Nc3nc(N[C@@H](C)c4ccc(F)cn4)ncc3Cl)n[nH]2)ccc1C=O,"enzyme activity, inhibitor",0.2 µM,,inhibition,43%
